Values quoted from earlier work that unrelated publications cite.
Each line is one published result; not all experiments were run side by side. ± gives the spread as reported.
UniProt Q8NI60, sequence (whole entry, looked up): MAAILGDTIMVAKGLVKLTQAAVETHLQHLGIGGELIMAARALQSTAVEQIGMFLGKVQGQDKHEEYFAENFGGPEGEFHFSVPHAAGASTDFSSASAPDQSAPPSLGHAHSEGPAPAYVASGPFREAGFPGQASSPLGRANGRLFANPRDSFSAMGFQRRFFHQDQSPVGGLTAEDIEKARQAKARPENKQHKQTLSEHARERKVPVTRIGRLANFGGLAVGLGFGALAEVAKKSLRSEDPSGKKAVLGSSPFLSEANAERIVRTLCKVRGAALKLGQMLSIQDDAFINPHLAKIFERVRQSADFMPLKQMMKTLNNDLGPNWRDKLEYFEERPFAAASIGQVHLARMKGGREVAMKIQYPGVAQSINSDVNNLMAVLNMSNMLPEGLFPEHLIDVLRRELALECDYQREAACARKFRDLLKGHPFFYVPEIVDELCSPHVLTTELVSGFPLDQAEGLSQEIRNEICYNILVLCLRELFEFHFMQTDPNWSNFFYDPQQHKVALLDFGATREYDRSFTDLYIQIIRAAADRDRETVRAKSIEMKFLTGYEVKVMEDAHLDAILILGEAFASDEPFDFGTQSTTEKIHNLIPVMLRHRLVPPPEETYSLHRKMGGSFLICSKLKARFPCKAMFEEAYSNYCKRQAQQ

COc1cc2c(Oc3ccc4[nH]c(C)cc4c3F)ccnc2cc1OCC1(N)CC1  IC50 (CYP1A2; reversible inhibitor): > 100 µM
CN(C)C(=O)c1cc2cnc(Nc3ccc(N4CCNCC4)cn3)nc2n1C1CCCC1  decrease in Cmax (CYP1A2; measured: caffeine; human; 400 mg once daily, 8 days; baseline: caffeine alone): ~10%
C=CC(=O)Nc1cc(Nc2nccc(-c3cn(C)c4ccccc34)n2)c(OC)cc1N(C)CCN(C)C  metabolism contribution (CYP1A2): 12%
FC(F)OC(Cl)C(F)(F)F (stereo not shown)  IC50 (CYP1A2; inhibitor; Tox21 screening): 47.7 ± 13.4 µM
CC(=O)Nc1ccc(O)cc1  Km (CYP1A2; substrate): 220 µM
C=C[C@@H]1C[C@]1(NC(=O)[C@@H]1C[C@@H]2CN1C(=O)[C@H](C(C)(C)C)NC(=O)O[C@@H]1C[C@H]1CCCCCc1nc3ccc(OC)cc3nc1O2)C(=O)NS(=O)(=O)C1CC1  IC50 (CYP1A2; inhibitor; human liver microsomes): > 100 µM
NC(=O)c1[nH]cnc1N  CYP1A2 contribution to metabolism (CYP1A2; in vitro based): ~70%
CNCc1cn(S(=O)(=O)c2cccc(F)c2)c(-c2ccc(F)cc2F)c1OC  IC50 (CYP1A2; enzyme activity): 51.3 µM
CC(C)(O/N=C(\C(=O)N[C@@H]1C(=O)N2C(C(=O)[O-])=C(C[n+]3ccccc3)CS[C@H]12)c1csc(N)n1)C(=O)O  MIC (Klebsiella pneumoniae; clinical isolate RKI-No_320/16): ≤ 2 µg/mL
N#CCNC(=O)c1ccc(-c2ccnc(Nc3ccc(N4CCOCC4=O)cc3)n2)cc1  inhibition (CYP1A2; enzyme activity, inhibitor; concentration not given): no inhibition
FC(F)(F)C(F)(F)C(F)(F)C(F)(F)C(F)(F)C(F)(F)C(F)(F)C(F)(F)C(F)(F)C(F)(F)F  activity (CYP1A2; concentration not given): inactive
Nc1cc(C(F)(F)F)c(-c2nc(N3CCOCC3)nc(N3CCOCC3)n2)cn1  remaining activity (Atypical kinase COQ8A, mitochondrial (COQ8A, Homo sapiens, UniProt Q8NI60); enzyme activity; 10 µM; baseline: untreated): 80%
Fc1c(F)c(F)c(Br)c(F)c1F  IC50 (CYP1A2; inhibitor): 46.2 ± 14.8 µM
COC(=O)N[C@H](C(=O)N1CCC[C@H]1c1nc(-c2ccc3c(c2)O[C@@H](c2ccccc2)n2c-3cc3cc(-c4c[nH]c([C@@H]5CCCN5C(=O)[C@@H](NC(=O)OC)C(C)C)n4)ccc32)c[nH]1)C(C)C  IC50 (CYP1A2; inhibitor; human liver microsomes): > 100 µM
CC(C)Nc1nc2cc(Cl)c(Cl)cc2n1[C@H]1O[C@@H](CO)[C@H](O)[C@@H]1O  metabolism contribution (CYP1A2): 15 to 30%
NS(=O)(=O)C(F)(F)C(F)(F)C(F)(F)C(F)(F)C(F)(F)C(F)(F)C(F)(F)C(F)(F)F  activity (CYP1A2; concentration not given): inactive
N#CCNC(=O)c1ccc(-c2ccnc(Nc3ccc(N4CCOCC4)cc3)n2)cc1  contribution to metabolism (CYP1A2; human hepatocytes): 9%
C=C(C)C(=O)OCCC(F)(F)C(F)(F)C(F)(F)C(F)(F)C(F)(F)C(F)(F)F  activity (CYP1A2; concentration not given): inactive
CO[C@@H](C)Cn1c(=O)n(C)c2cnc3ccc(-c4cncc(C(C)(C)O)c4)cc3c21  fraction of hepatic clearance (CYP1A2; substrate depletion): 18%

For quick reference, copied from above:
COc1cc2c(Oc3ccc4[nH]c(C)cc4c3F)ccnc2cc1OCC1(N)CC1  IC50 (CYP1A2; reversible inhibitor): > 100 µM
